Published values gathered from unrelated publications.
Every numbered part comes from another study and shows a few of its results, in no order. Positions count from the first letter of the parent shown.
Sequence of UniProt P61075 (whole entry, looked up): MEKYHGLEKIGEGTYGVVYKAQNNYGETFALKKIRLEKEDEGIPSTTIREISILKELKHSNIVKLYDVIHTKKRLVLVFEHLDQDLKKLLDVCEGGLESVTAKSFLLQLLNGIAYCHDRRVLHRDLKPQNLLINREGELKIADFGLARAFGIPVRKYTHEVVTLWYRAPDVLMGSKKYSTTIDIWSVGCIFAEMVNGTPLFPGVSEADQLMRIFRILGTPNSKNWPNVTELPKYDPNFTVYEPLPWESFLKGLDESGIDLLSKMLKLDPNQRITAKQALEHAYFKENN

Study 1
Target: UDP-N-acetylglucosamine--peptide N-acetylglucosaminyltransferase 110 kDa subunit (OGT, Homo sapiens, UniProt O15294)
Sequence of UniProt O15294 (whole entry, looked up): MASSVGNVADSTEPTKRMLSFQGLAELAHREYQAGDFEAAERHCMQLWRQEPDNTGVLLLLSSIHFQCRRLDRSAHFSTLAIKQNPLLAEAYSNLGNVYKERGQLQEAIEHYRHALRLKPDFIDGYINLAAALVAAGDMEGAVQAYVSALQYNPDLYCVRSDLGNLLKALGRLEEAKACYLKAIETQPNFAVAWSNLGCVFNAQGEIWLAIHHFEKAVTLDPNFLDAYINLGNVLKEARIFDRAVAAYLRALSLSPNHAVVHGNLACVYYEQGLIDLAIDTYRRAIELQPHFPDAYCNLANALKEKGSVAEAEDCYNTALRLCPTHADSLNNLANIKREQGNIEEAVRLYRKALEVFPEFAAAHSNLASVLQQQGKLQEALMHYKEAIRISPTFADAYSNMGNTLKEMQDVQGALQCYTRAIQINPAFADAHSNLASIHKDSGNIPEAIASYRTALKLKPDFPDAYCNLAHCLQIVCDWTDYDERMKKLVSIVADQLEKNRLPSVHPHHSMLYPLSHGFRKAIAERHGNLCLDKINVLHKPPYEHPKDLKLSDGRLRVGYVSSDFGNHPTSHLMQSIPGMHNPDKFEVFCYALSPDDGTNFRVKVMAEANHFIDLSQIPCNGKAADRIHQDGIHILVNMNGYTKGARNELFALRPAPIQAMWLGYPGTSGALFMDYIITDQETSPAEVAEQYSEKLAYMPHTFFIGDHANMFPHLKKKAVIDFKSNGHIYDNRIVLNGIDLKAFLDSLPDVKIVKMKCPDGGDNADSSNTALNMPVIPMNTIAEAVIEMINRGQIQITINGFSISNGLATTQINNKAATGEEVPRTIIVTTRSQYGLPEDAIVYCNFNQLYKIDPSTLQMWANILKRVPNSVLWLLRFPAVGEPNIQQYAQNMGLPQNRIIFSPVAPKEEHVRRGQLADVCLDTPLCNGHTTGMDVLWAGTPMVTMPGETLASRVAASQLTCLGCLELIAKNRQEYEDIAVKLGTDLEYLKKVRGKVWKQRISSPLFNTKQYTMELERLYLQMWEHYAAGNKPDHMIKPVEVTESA
Read-out: binding
Method: phage display NGS
Form: peptide
Concentration: concentration not given
Baseline: input library
Sequence	enrichment fold change
HQSHYQHTSPAIIHK	4.87
SFPRHQHTYHTQPSR	5.24
QPYSNYHHHAHIRYD	4.56
VTSENHPHVYMYYHV	3.39
HNFFEYHTANRHQHF	9.7
HQQLVHGAWHHPIT	5.68
GISDGMYMPWYKIRT	2.27
FLPQYKIEVPFSVYK	1.89

Study 2
Target: CCNE1, cyclin fold, Cln2 fusion (human)
Method: yeast growth competition, sequencing
Medium: yeast
Notes: strong parent motif
Baseline: not given
Direction: higher = stronger binding
Starting sequence: viral docking peptide; PTARRRLLHDLDT
Variant	normalised enrichment score
T13A	1.12
L11A	0.691
H9F	6.15
T2A	0.438
L8F	6.78
D12A	0.542
D10A	0.013
R4A	0.0872

Other studies, line by line
Compound	target or system	test	setting	how to read	measurement	value
CN1CCN(c2cnc3c(C4CCN(C(=O)c5ccc(OC(F)(F)F)cc5N)CC4)ncnc3c2)CC1	Cyclin-dependent kinase 2 homolog (CRK2, Plasmodium falciparum, UniProt P61075)	cell-free assay, competition with immobilised ligand	1 µM		remaining binding	100%
O=C1CCC(N2Cc3c(ccc4c3OCC43CCN(Cc4ccccc4)CC3)C2=O)C(=O)N1 (stereo not shown)	Caco-2		10 µM, 120 min, basolateral to apical		recovery	107%
CC(=O)[C@H]1CC[C@H]2[C@@H]3CC[C@@H]4C[C@H](O)CC[C@]4(C)[C@H]3CC[C@]12C	mouse MPNST tumor cells	high-content nuclear imaging, refers to: cell number	10 µM, 12 h, mean of 2 replicates	baseline: plate mean, higher = more cells	nuclei count	-0.45 z-score

For quick reference, copied from above (study 2):
Variant	normalised enrichment score
T13A	1.12
L11A	0.691
H9F	6.15
